Results of several laboratories.
A part holds a random share of what one study measured. Positions count from the first letter of the parent shown.

Study 1
Target: ATF7, bZIP domain (human)
Technique: DHFR protein complementation
Sample: yeast
Notes: single substitutions, most at no-binding floor
Relative to: wild-type JUN-FOS pair
Direction: higher = stronger binding
Quantity: binding fitness
Parent: JUN, bZIP domain (human); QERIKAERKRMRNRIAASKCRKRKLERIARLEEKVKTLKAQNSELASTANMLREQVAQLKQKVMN; partner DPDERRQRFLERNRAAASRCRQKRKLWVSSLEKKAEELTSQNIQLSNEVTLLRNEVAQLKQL
E33L: -1.09 natural log
Q41S: -1.4 natural log
V35K: -1.57 natural log
Q58R: -1.11 natural log
A46E: -0.79 natural log
V56G: -1.46 natural log
I28R: -0.962 natural log
Q41K: -0.859 natural log
L45E: -1.47 natural log
Q41C: -1.45 natural log
A49T: -1.33 natural log
L38N: -1.39 natural log
A46C: -1.09 natural log
S43D: -0.698 natural log
E32K: -0.91 natural log
K34A: -1.2 natural log
M51K: -0.789 natural log
E44G: -1.35 natural log
L52E: -1.48 natural log
S43R: -0.751 natural log
S47H: -0.768 natural log
R53S: -1.29 natural log
E33A: -1.06 natural log
L31P: -1.5 natural log
N42V: -1.41 natural log

Study 2
Target: ABI1, truncated, D143A, DHFR fusion (Arabidopsis thaliana)
Technique: DHFR PCA, deep sequencing
Sample: yeast
Notes: methotrexate growth selection, single substitutions
Added: (+)-ABA 0.0091 µM
Relative to: wild-type fitted maximum
Direction: higher = stronger binding
Quantity: relative binding score
Parent: PYL1, truncated, DHFR fusion (Arabidopsis thaliana); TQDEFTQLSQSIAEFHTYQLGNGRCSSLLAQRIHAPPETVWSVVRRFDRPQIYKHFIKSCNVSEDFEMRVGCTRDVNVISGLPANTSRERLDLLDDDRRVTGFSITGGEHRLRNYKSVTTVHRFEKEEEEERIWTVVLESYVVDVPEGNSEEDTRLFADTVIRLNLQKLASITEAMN
S42M: 4.97%
W134L: 14.1%
A13W: -0.309%
D3S: 24.6%
H34R: 27.8%
E152D: 14.3%
K54M: -3.85%
R132C: 42.2%
E14L: 4.16%
C72Q: 32%
T135S: 6.34%
A84I: 33.1%
D92K: -1.76%
I57N: -0.521%
E89M: 3.53%
N114M: 1.09%

Study 3
Target: CCNB2, cyclin fold, Cln2 fusion (human)
Technique: yeast growth competition, sequencing
Sample: yeast
Notes: strong parent motif
Relative to: not given
Direction: higher = stronger binding
Quantity: normalised enrichment score
Parent: MICAL3 docking peptide (human); LQLRRQLSFSEDS; partner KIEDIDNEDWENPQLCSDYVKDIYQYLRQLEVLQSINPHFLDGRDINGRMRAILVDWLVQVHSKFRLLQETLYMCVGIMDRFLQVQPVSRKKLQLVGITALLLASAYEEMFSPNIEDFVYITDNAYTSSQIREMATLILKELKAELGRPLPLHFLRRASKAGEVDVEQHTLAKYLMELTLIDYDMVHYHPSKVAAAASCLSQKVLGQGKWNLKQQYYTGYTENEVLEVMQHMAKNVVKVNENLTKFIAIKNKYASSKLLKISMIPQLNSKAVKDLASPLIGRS
R5Q: 0.414
L3F: 0.811
S10R: 1.87
Q6F: 0.854
R5Y: 0.326
Q6L: 0.871
D12C: 3.6
R5A: 0.0621
F9E: 0.338
F9A: 0.124
Q2E: 3.17
S8M: 1
L7F: 0.142
Q2C: 3.6
R5T: 0.555
S10M: 1.45
R4K: 2.37
Q2L: 3.17
F9G: -0.121
L3A: 0.826
Q2I: 2.68
L3Q: 0.339
E11C: 1.97
L3G: 0.0053
Q6K: 4.51

Study 4
Target: Interferon regulatory factor 5, full length, phosphomimetic (IRF5, Homo sapiens, UniProt Q13568-2, residues 1-514, S451D/S453D/S456D/S462D)
Technique: protein-binding microarray
Form: double-stranded DNA, one strand shown
Sample: in vitro
Tested at: 940 nM top
Notes: 60-bp whole probe
Added: salmon DNA 0.4 mg/ml
Relative to: random background probes
Direction: higher = stronger binding
Quantity: fitted relative affinity
Constant ends, left off below: GCCTAGCAC … GTCTTGATTCGCTTGACGCTGCTG
TCACTTCCATTTTCTGAAACTGTGCTA: 1.75 z-score
AAGACTTTCTTTCAAATGAAGTGCTAG: 1.1 z-score
TCATGCCTATTTTTCCCACTGTGCTAG: 0.853 z-score
GTCGAACTGGGGTTTCGAGACGTGCTA: 3.26 z-score
TGAGGTATCCTACTGCTTTAGTGCTAG: -0.239 z-score
TCAACACTAATTTTTACACTGTGCTAG: 0.497 z-score
GAGGGTATCGGTTTCGGGACGTGCTAG: 6.67 z-score
TTAGATTTCGGGTGTCGATTAGTGCTA: 1.22 z-score
TTATATTTCAGTATCGATTAGTGCTAG: 6.71 z-score
TGGCCTCTAGGTTTTCTGAAGTGCTAG: -0.296 z-score
GACGGTCGCGGACTGGGGACGTGCTAG: -0.369 z-score
GACGATCTCAGTTTTGAGACGTGCTAG: 0.426 z-score
GACTGTATCGACTATCGGGACGTGCTA: 1.51 z-score
TTAGGTATCCTTATCCTCTAGTGCTAG: 0.273 z-score
TTAGATCTCAGTTTCGGTTAGTGCTAG: 9.44 z-score
GACGGTTCCGGTTTCAGGACGTGCTAG: 4.15 z-score
TCACCTGTCCTTTTCTTACTGTGCTAG: 1.6 z-score
TCATGTGTCAACTTTCTCACTGTGCTA: 0.86 z-score
GACGATCTCAGTCTCGAAACGTGCTAG: 1.5 z-score

For quick reference, copied from above (study 2):
W134L: 14.1%
A13W: -0.309%
D3S: 24.6%
H34R: 27.8%
E152D: 14.3%
K54M: -3.85%
R132C: 42.2%
E14L: 4.16%
C72Q: 32%
T135S: 6.34%
A84I: 33.1%
D92K: -1.76%
I57N: -0.521%
